Published values of several laboratories.
Parts stem from different laboratories: compare values within a part only. Positions count from the first letter of the parent shown.

Set 1
Target: CCNB1, cyclin fold, Cln2 fusion (human)
Method: yeast growth competition, sequencing
Medium: yeast
Notes: strong parent motif
Relative to: not given
Reading: higher = stronger binding
Endpoint: normalised enrichment score
Starting sequence: BRCA2 docking peptide (human); PSIKRNLLNEFDR
R5C: 0.576
I3A: 0.613
S2I: 0.458
N6S: 1.89
E10A: 0.577
L7G: 0.208
F11E: 0.0551
K4P: 0.403
K4D: 0.68
I3D: -0.683
R13L: 1.53
L8Q: 0.0308
N9Y: 3.25
R5L: 0.383
R13T: 2.83
N9G: 2.17
I3R: 0.0515
L7P: 0.208
F11Q: 0.337
S2C: 1.98
S2N: 2
K4C: 5.05
I3M: 0.0279
I3H: 0.933
L7I: 1.02

Set 2
Target: Fragile X messenger ribonucleoprotein 1, C-terminal low-complexity region (Fmr1, Mus musculus, UniProt P35922)
Method: RNA Bind-n-Seq
Molecule type: RNA
Medium: in vitro
Concentration: 200 nM
Notes: whole 134-nt RNA, ends assumed
Added: 150 mM LiCl
Relative to: input library
Reading: higher = stronger binding
Endpoint: log2 enrichment
Library: 7-deaza-guanosine replaces G
Shared flanks, not repeated: GGGAGUUCUACAGUCCGACGAUC … UGGAAUUCUCGGGUGUCAAGG
GCAGGAAGUAAAAACAAAUGGAAAUGCUUCGAAAAGUGGCAGGGGUGGGGGUUGCUAAGGAAAGGGUGGGAUGGGAGUGGGUAAAGAGUU: 1.53
ACCAUGCAGGUGGGCAUCUUUAGGAAGUGGGGCAAGGGGGGGAUAGGGAGGGGGGUAACACUUUGGGAACAGGUGGUCCCAGGUCGUUUC: 1.36
AGUCCUGUGCUACACAUCGUAUGUACCGAAUCGGGGUUUGGGGUGGGGAAAAAGGGGAAAGUAUUAUGUUACGCCGUUCGGAUCUGCACU: -0.0949
AAGUCCUGUGCUACACAUCGUAUGUACCGAAUCGGGUUUUUUUGGGUUUGGGUGGGAAAGUAUUAUGUUACGCCGUUCGGAUCUGCACUU: -1.57
GUCCUGUGCUACACAUCGUAUGUACCGAAUCGGUUUUUUUGGUUUUUUUGGUUUUUGGAAAGUAUUAUGUUACGCCGUUCGGAUCUGCAC: -1.47
AGUCCUGUGCUACACAUCGUAUGUACCGAAUCGGGUUUUUGGGAAAAAGGGUUUGGGAAAGUAUUAUGUUACGCCGUUCGGAUCUGCACU: -3.13
CCUGUGCUACACAUCGUAUGUACCGAAUCGGGAAAAAAGGGGAAAAAAGGGAAAAAAGGGAAAGUAUUAUGUUACGCCGUUCGGAUCUGC: -0.266
GGCGGAGCAGCUGAUGGAGGAGUGGAACGAAGACCUAGACGGCAUGGAGGGUUUCGUGCUGGAGGGCAAGAAGUUUGCGCGGCUGCCGGA: -2.09

Set 3
Target: RNA binding protein fox-1 homolog 2, RRM domain, GST-SBP tag (RBFOX2, Homo sapiens, UniProt O43251-10, residues 100-194)
Method: RNA Bind-n-Seq
Molecule type: RNA
Medium: in vitro
Concentration: 365 nM
Notes: natural RNA segment, single round, ends assumed
Relative to: no-protein control
Reading: higher = stronger binding
Endpoint: RBNS enrichment (R)
Shared flanks, not repeated: GGGAGUUCUACAGUCCGACGAUC … UGGAAUUCUCGGGUGCCAA
Construct (chain): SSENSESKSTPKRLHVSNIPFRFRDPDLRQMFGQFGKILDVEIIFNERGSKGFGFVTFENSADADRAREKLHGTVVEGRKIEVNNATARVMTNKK
GGCCUCAUAUGUUCCAUGAGGAGCUAGGCCUCGUGGAAUGGCUGGCUGACUAAACCCAGAAAGCCAAGGCUCUGCCAGUGGAAGAGACUUCACUUUUGUAGACCUUCCCU: 0.21
GUGUGUUUUCCUCACACACUUUGAUUUGGAGAAUUGGUGCUAGUUGGCAAUAGAUAACUCAGCGUAGAUAGUAUUGCAAAAAGGGGAGGAAAUACACAACAAUAAUAAAU: 0.825
CAGCCAGUGUCGGGAAGAGUUGCCCGCCAGCCUUCCAGAGUUCCCCUACCCGAUUGGUCCCGGCCUCCUGGGAGUGUGGCCAAGCCCUCCCUAACCCAGAAUUGGCCCGA: 0.541
UGCUUAAGACUAAGUCCAGUGUUUUUCAUUUUCCCUUUGGCUGAAUAUUUCAAUUGACAAACCAGCAGGACAUAUGAAAAAUGCUUCAGUGAUGUGGUCCAUUAUAAGAU: 0.379
GUGACAGUAAUGGUUAUUACAAUAAAAAUAAUAAAAUCACCAUCAUUCUAUUUUUAACCAAAAGUAUACAUUUUACUUUGGCAUGAAAAAUGAUCCCCUUGACUGCAUCA: 0.382
UACUCAGUGUUCUAAUUUUUAAAAAAUUUUAUCUGCAUAUUUGCAUCAAAUAUUUAUGUGUAAAAUGUAUGUUUUACCUCCUUAAAAUGCCUAAAAGUUAGUUAAUAGUU: 1.03
AGAGACGGAAGGAGCACCUUGACAGACUUGUGUGAGUCUUCUCGAAGGAGGGUUGACUCAGAACCCAGAGACAAUACAAAACCCCUCACUUCCUCUGAGAGGGCCAAAUG: 0.271
CCUCUGCCCAUGAUCCCCAAUGUUGGCUAUAACUGCGUGAAUAAAGCAAGGAUCAGUGCCUCCUGUGAACUAGUGCUCCAUUGCUUUUGUGUGUUGUGUUCUGUACAAUU: 1.04

Set 4
Target: Sal-like protein 4, full length isoform A (SALL4, Homo sapiens, UniProt Q9UJQ4, residues 1-1053)
UniProt Q9UJQ4, sequence (whole entry, looked up): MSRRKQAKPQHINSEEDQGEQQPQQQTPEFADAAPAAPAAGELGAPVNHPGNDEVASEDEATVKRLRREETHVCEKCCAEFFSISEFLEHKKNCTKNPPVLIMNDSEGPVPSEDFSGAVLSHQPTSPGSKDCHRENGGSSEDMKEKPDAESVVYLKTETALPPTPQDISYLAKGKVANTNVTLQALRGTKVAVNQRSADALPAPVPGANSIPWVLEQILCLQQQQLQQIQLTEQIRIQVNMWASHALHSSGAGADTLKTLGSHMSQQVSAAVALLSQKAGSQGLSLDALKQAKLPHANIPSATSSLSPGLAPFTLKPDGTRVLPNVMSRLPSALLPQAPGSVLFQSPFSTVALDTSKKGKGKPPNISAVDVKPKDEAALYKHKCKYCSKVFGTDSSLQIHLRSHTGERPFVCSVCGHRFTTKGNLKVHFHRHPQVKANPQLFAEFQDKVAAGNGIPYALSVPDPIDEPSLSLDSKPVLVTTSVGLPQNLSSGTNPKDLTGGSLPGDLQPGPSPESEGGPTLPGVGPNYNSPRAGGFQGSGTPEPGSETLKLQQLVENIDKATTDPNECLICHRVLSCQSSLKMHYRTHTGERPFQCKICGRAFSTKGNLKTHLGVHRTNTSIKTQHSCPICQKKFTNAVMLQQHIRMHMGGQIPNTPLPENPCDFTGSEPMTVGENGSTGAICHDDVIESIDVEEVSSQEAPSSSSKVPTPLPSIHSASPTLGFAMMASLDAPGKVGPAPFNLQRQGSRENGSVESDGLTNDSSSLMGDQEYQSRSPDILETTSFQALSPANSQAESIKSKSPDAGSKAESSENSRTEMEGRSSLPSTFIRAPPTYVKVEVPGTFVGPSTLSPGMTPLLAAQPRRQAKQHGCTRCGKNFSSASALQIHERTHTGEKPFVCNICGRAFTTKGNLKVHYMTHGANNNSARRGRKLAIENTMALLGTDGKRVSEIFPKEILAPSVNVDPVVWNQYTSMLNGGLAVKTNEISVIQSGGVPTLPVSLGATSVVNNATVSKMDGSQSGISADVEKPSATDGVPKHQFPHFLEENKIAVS
Method: universal PBM
Molecule type: double-stranded DNA, one strand shown
Medium: in vitro
Concentration: 600 nM
Notes: 8-mer, flanks averaged, mean of replicates
Reading: higher = stronger binding
Endpoint: E-score
AGCGAGGC: -0.266
CCAGGCGA: -0.366
ATCGTTTA: 0.267
CGCGGACA: -0.103
TATAGTAA: 0.322
AGGACTGC: -0.353
CCACCGAC: -0.327
ATGGGCTA: 0.0905
AGTGTCGA: -0.103
AATCTGTC: 0.0906
GCATTACA: 0.0772
TGACGCAA: -0.0515
CGATTCGA: 0.0539
ATGCACGC: 0.0484
AGCATACC: 0.0597
ATCCGGTC: -0.298
CGAATGCG: -0.0583
GAGATAGA: -0.0163
AAGTTTGG: 0.142
GAAGTCTC: -0.128
GTGATCTA: 0.164
CGCCTGAG: -0.336
CCCGGTAG: -0.331
ATTGTGTC: 0.22
GCCGCGGA: -0.352

A few entries again (set 1):
R5L: 0.383
R13T: 2.83
N9G: 2.17
I3R: 0.0515
L7P: 0.208
F11Q: 0.337
S2C: 1.98
S2N: 2
K4C: 5.05
I3M: 0.0279
